Measured values collected from several papers.
Protocols differ between the studies behind these lines. Numbers after ± are the reported error.

Compound	tested on	test	system	setting	scale	measurement	result
CC(C)=CCC[C@](C)(O[C@@H]1O[C@H](CO)[C@@H](O)[C@H](O)[C@H]1O)[C@H]1CC[C@]2(C)[C@@H]1[C@H](O)C[C@@H]1[C@@]3(C)CC[C@H](O)C(C)(C)[C@@H]3[C@@H](O[C@@H]3O[C@H](CO)[C@@H](O)[C@H](O)[C@H]3O)C[C@]12C	–	–	Sprague Dawley rat, male, plasma	oral, 25 mg/kg, in white ginseng extract	–	AUC(0-36 h)	1200 ± 700 ng·h/mL
Cc1nc2cccc(OCC(C)(C)C(=O)NC(C)C)c2c(N)c1C(=O)O	–	–	female Sprague-Dawley rat, plasma	oral gavage, 30 mg/kg, day 1	–	Tmax	0.42 h
CC(C)(C)c1cc(C(C)(C)C)c(NC(=O)c2c[nH]c3ccccc3c2=O)cc1O	Calu-3	MTT	–	20 µg/mL, 24 h	baseline: untreated control	viability	17.4 ± 0.6%
Brc1ccc2[nH]c(-c3ccccc3)cc2c1	HEK293 NF-κB luciferase reporter	reporter gene, measured: NF-κB	–	50 µM, 6 h, added: TNFα	–	inhibition	92.2 ± 2.7%
CCCCOC(=O)Nc1cc2nc(C3CCCCC3)[nH]c2cc1N(CCC)CCC	Vero	cytotoxicity, Alamar Blue	–	3 days, 37 °C	–	IC50	> 100 µg/mL
CN(C)C(=N)N=C(N)N	–	–	Sprague-Dawley rat, male, liver	oral, 100 mg/kg, 6 h, single low dose	direction not given	hepatocyte necrosis score	0
CC(C)[C@H](NC(=O)[C@@H]1CCCN1C(=O)[C@H](CCCNC(=N)N)NC(=O)[C@H](CS)NC(=O)[C@H](Cc1c[nH]c2ccccc12)NC(=O)[C@H](CCCNC(=N)N)NC(=O)[C@@H](Cc1ccccc1)NC(=O)[C@H](Cc1c[nH]cn1)NC(=O)[C@H](CCC(=O)O)NC(=O)[C@H](CS)NC(=O)[C@H](CS)NC(=O)[C@H](CCCCN)NC(=O)[C@@H]1CC(=O)N[C@@H](CCCNC(=N)N)C(=O)N[C@@H](C)C(=O)N[C@@H](CC(=O)O)C(=O)N[C@H](Cc2ccc(O)cc2)C(=O)N1)C(N)=O [technetium-99m labelled]	–	–	C57 mice, liver	intravenous, 0.037 MBq, 0.5 h	–	tissue uptake	2.66 ± 0.17 %ID/g
CCCC[C@H](NC(C)=O)C(=O)N[C@H]1CCC(=O)NC[C@@H](C(=O)N[C@@H](Cc2c[nH]c3ccccc23)C(N)=O)NC(=O)[C@H](CCCNC(=N)N)NC(=O)[C@@H](Cc2ccccc2)NC(=O)[C@H](Cc2c[nH]cn2)NC1=O	–	–	Sprague Dawley rat, male, plasma	subcutaneous, 5.0 mg/kg daily, day 28	–	AUC(0-t)	4550 ng·h/mL
CCc1ccc(Cc2ccc3c(c2)[C@]2(OC3)O[C@H](CO)[C@@H](O)[C@H](O)[C@H]2O)cc1	–	–	Wistar rat, male, kidney	oral, dose not given, 8 h	baseline: kidney over plasma concentration	tissue/plasma ratio	492 ± 101
COc1ccc(-c2nc(OCC(F)(F)F)nn2-c2ccc(OC)cc2)cc1 [carbon-11 labelled]	–	PET	rhesus monkey, whole brain	dose not given, 85 min, baseline	–	brain radioactivity	1.99 SUV
Nc1ccn([C@@H]2O[C@H](CO)[C@@H](O)C2(F)F)c(=O)n1	–	–	extracted rat plasma	125.00 ng/mL, 8 h, 10 °C, autosampler stability, mid QC	–	measured concentration	136 ± 1.8 ng/mL
CS(=O)(=O)Nc1ccc(C(=O)O[C@@H](Cc2c(Cl)c[n+]([O-])cc2Cl)c2ccc(OC(F)F)c(OCC3CC3)c2)cc1OCC1CC1	–	–	human, plasma	inhaled, 2400 µg twice daily, day 1, multi-dose dry powder inhaler	–	Cmax	1.23 ng/mL
C[C@]12CC[C@@H]3c4ccc(O)cc4CC[C@H]3[C@@H]1C[C@@H](O)[C@@H]2O	–	GC-MS	breast cancer women on NSAI, serum	vaginal, 0.03 mg daily, 0.5 h, day 28	–	maximum serum concentration	0.0129 ng/mL
CC[C@H](C)[C@@H]1NC(=O)[C@H](Cc2ccc(O)cc2)NC(=O)[C@@H](N)CSSC[C@@H](C(=O)N2CCC[C@H]2C(=O)N[C@@H](CC(C)C)C(=O)NCC(N)=O)NC(=O)[C@H](CC(N)=O)NC(=O)[C@H](CCC(N)=O)NC1=O	–	microdialysis, radioimmunoassay	C57BL/6J male mice, wild type, hippocampus extracellular fluid	intraperitoneal, 12 µg total, time to half of Cmax	–	half-life	0.335 ± 0.075 h
COc1ccc(NC(=O)N2CCCCN3[C@H](CN(C)C)[C@H](c4ccc(C#Cc5ccccc5)cc4)[C@@H]3C2)cc1	–	–	CD-1 mice, brain	oral, 10 mg/kg	–	Tmax	8 h
COc1ccc2cc3[n+](cc2c1OC)CCc1cc2c(cc1-3)OCO2	–	–	rat plasma QC sample	32 ng/mL nominal, 24 h, medium QC level autosampler stability	–	measured concentration	30.7 ± 1.6 ng/mL
Cc1cc(Nc2cc3ncccc3c(N[C@@H]3C[C@H]4CC[C@@H](C3)N4CCC#N)n2)n[nH]1	–	–	beagle dog, male, plasma	oral, 30 mg/kg/day, last day of 13 weeks	–	Cmax	82.7 ng/mL
COc1ccc(-c2oc3c(OC)c(OC)c(OC)c(OC)c3c(=O)c2OC)cc1OC	–	–	C57BL/6 mouse, male, feces	oral, 1% w/w in diet, 6 weeks, orange peel extract diet	baseline: content in orange peel	tissue to peel content ratio	81.7%
CC(C)C[C@H](NC(=O)[C@H](CCCNC(=N)N)NC(=O)[C@H](CC(N)=O)NC(=O)[C@H](CC(=O)O)NC(=O)[C@H](CCCNC(=N)N)NC(=O)CNC(=O)CNC(=O)CNC(=S)Nc1ccc(C[C@H]2CN(CC(=O)O)CCN(CC(=O)O)CCN2CC(=O)O)cc1)C(=O)N[C@@H](CC(N)=O)C(=O)N[C@H](C(=O)NCC(=O)NCC(=O)N[C@H](C(=O)N[C@@H](Cc1ccc(O)cc1)C(=O)N[C@@H](Cc1ccccc1)C(=O)N[C@@H](CC(C)C)C(=O)N[C@H](C(=O)N[C@H](C(=O)N[C@@H](CCCNC(=N)N)C(=O)N[C@@H](CCC(N)=O)C(=O)O)[C@@H](C)O)[C@@H](C)O)[C@@H](C)O)C(C)C	–	reverse-phase HPLC	–	–	–	HPLC retention time	13.5 min

Compound	tested on	test	system	setting	scale	measurement	result
COc1cc(/C=C/C(=O)CC(=O)/C=C/c2ccc(O)c(OC)c2)ccc1O	–	I-125 label	C57BL/6J mouse, cerebellum	intranasal vs intraperitoneal, 10 µg/mouse IN, 100 µg/mouse IP, 8 h	baseline: intranasal over intraperitoneal	brain uptake ratio	7.11
C[C@H](N)C(=O)N[C@H](Cc1c[nH]c2ccccc12)C(=O)N[C@@H](Cc1ccccc1)C(=O)N[C@H](C(=O)N1CCC(C(N)=O)CC1)[C@H](c1ccccc1)c1c[nH]c2ccccc12	–	RP-HPLC Jupiter Proteo	–	acetonitrile/water TFA gradient	–	HPLC retention	52 %B
CC(C)C[C@@H]1NC(=O)CN(C)C(=O)[C@H](Cc2ccccc2)NCc2cc(c[nH]2)CNC1=O	–	–	PAMPA	100 µM, 17 h, pH 6.4	–	Papp	0.174 ×10⁻⁶ cm/s
CC(C)(C)CCN1CC2C(CNC(=O)c3cc(Cl)cc(Cl)c3)C2C1 (stereo not shown)	–	–	Sprague-Dawley rat, male	oral, 3 to 30 mg/kg range	baseline: brain over plasma	tissue/plasma ratio	16.9
CCCCCCCCCCCCOP1(=O)CO[C@@H](Cn2ccc(N)nc2=O)CO1 (stereo partly shown)	–	–	n-octanol/DPBS	24 h, pH 7.4, 37 °C	–	logP	3.89 ± 1.23
CC[C@H](C)[C@H](NC(=O)[C@H](CCCNC(=N)N)NC(=O)[C@@H](NC(=O)CNC(C)=O)[C@@H](C)O)C(=O)N[C@H](C(=O)N[C@@H](Cc1ccc(O)cc1)C(=O)N[C@@H](CC(=O)O)C(=O)N[C@@H](CCCNC(=N)N)C(=O)N[C@@H](CCCCN)C(=O)N[C@@H](Cc1ccccc1)C(=O)N[C@@H](CC(C)C)C(=O)N[C@@H](CCSC)C(=O)N[C@@H](CCC(=O)O)C(=O)N[C@@H](CS)C(=O)N[C@@H](CCCNC(=N)N)C(=O)N[C@@H](CC(N)=O)C(N)=O)[C@@H](C)CC	–	CD spectroscopy	sodium phosphate buffer	25 to 100 µM, pH 7.4, 25 °C	–	helicity	16%
COc1cccc2c1C(=O)c1c(O)c3c(c(O)c1C2=O)C[C@@](O)(C(=O)CO)C[C@@H]3O[C@H]1C[C@H](N)[C@H](O)[C@H](C)O1	–	–	mouse, E0771 tumour-bearing, plasma	intravenous, 92 µmol/kg	–	terminal half-life	13 h
O=C(c1ccncc1)N1CCN(c2cc(-c3ccccc3)nc3cc(-c4cccc(Cl)c4)nn23)CC1	ABCB1 (Homo sapiens, UniProt P08183)	JC-1 efflux, inhibitor	Jurkat-DNR	–	–	IC50	1160 ± 300 nM
CC(C)[C@H](NC(=O)[C@@H]1CCCN1C(=O)[C@H](CCCNC(=N)N)NC(=O)[C@H](CS)NC(=O)[C@H](Cc1c[nH]c2ccccc12)NC(=O)[C@H](CCCNC(=N)N)NC(=O)[C@@H](Cc1ccccc1)NC(=O)[C@H](Cc1c[nH]cn1)NC(=O)[C@H](CCC(=O)O)NC(=O)[C@H](CS)NC(=O)[C@H](CS)NC(=O)[C@H](CCCNC(=N)N)NC(=O)[C@@H]1CC(=O)N[C@@H](CCCNC(=N)N)C(=O)N[C@@H](C)C(=O)N[C@@H](CC(=O)O)C(=O)N[C@H](Cc2ccc(O)cc2)C(=O)N1)C(N)=O [technetium-99m labelled]	–	–	C57 mouse, urinary bladder	intravenous, 0.037 MBq, 24 h	–	tissue uptake	91.5 ± 1.86 %ID
Cc1ccc(NC(=O)c2ccc(CN3CCN(C)CC3)cc2)cc1Nc1nccc(-c2cncc(-c3oncc3C)c2)n1	–	–	Parkinson's disease patients, plasma	oral, 50.0 mg once daily, day 7, 7-day dosing, mean	–	dose-normalised Cmax	51.2 ng/mL/mg
c1ccc2[nH]c(-c3ccsc3)cc2c1	HEK293	cell growth or viability	–	50 µM	–	viability	76%
C#C[C@]1(COP(=O)(O)OP(=O)(O)OP(=O)(O)O)O[C@@H](n2cnc3c(N)nc(F)nc32)C[C@@H]1O	human PBMC tumour model	–	host not given, plasma	oral, 400 mg, single dose, fasted	–	half-life	160 h
CC(C)=CCC[C@](C)(O[C@@H]1O[C@H](CO)[C@@H](O)[C@H](O)[C@H]1O)[C@H]1CC[C@]2(C)[C@@H]1[C@H](O)C[C@@H]1[C@@]3(C)CC[C@H](O[C@@H]4O[C@H](CO)[C@@H](O)[C@H](O)[C@H]4O[C@@H]4O[C@H](CO)[C@@H](O)[C@H](O)[C@H]4O)C(C)(C)[C@@H]3CC[C@]12C	–	–	Sprague Dawley rat, male, plasma	oral, 42 mg/kg, in red ginseng extract	–	AUC(0-36 h)	13300 ± 4600 ng·h/mL
CN1CC[C@@H](NC(=O)Nc2ccc(C#N)cc2)C[C@@H]1c1nc2ccccc2[nH]1	–	–	normal hepatic function, plasma	oral, 100 mg single dose, fasted, geometric mean	–	AUC(0-t), unbound	835 ng·h/mL
CC(C)CC(=O)NCC(=O)O	–	untargeted mass spectrometry	human normal subjects, plasma ultrafiltrate	–	–	unbound fraction in plasma	30 ± 6%
C=CCn1c(=O)c2cnc(Nc3ccc(N4CCN(C)CC4)cc3)nc2n1-c1cccc(C(C)(C)O)n1	–	–	human glioblastoma patients, brain tumour tissue	–	–	unbound fraction	0.067 ± 0.013
COc1ccc(-c2cc(=O)c3c(OC)c(OC)c(OC)c(OC)c3o2)cc1	–	–	C57BL/6 mouse, male, feces	oral, 1% w/w in diet, 6 weeks, orange peel extract diet	baseline: content in orange peel	tissue to peel content ratio	86.2%
CCN(CC)c1cc2[nH]c(C3CCCCC3)nc2cc1NC(=O)c1ccc(F)cc1	Vero	cytotoxicity, Alamar Blue	–	3 days, 37 °C	–	IC50	> 100 µg/mL

A few entries again:
Compound	tested on	test	system	setting	scale	measurement	result
C[C@H](N)C(=O)N[C@H](Cc1c[nH]c2ccccc12)C(=O)N[C@@H](Cc1ccccc1)C(=O)N[C@H](C(=O)N1CCC(C(N)=O)CC1)[C@H](c1ccccc1)c1c[nH]c2ccccc12	–	RP-HPLC Jupiter Proteo	–	acetonitrile/water TFA gradient	–	HPLC retention	52 %B
CC(C)C[C@@H]1NC(=O)CN(C)C(=O)[C@H](Cc2ccccc2)NCc2cc(c[nH]2)CNC1=O	–	–	PAMPA	100 µM, 17 h, pH 6.4	–	Papp	0.174 ×10⁻⁶ cm/s
